Published values pooled from the literature.
Each line is one published result; not all experiments were run side by side. pIC50: −log10 of the molar value.
UniProt Q8NFN8, sequence (whole entry, looked up): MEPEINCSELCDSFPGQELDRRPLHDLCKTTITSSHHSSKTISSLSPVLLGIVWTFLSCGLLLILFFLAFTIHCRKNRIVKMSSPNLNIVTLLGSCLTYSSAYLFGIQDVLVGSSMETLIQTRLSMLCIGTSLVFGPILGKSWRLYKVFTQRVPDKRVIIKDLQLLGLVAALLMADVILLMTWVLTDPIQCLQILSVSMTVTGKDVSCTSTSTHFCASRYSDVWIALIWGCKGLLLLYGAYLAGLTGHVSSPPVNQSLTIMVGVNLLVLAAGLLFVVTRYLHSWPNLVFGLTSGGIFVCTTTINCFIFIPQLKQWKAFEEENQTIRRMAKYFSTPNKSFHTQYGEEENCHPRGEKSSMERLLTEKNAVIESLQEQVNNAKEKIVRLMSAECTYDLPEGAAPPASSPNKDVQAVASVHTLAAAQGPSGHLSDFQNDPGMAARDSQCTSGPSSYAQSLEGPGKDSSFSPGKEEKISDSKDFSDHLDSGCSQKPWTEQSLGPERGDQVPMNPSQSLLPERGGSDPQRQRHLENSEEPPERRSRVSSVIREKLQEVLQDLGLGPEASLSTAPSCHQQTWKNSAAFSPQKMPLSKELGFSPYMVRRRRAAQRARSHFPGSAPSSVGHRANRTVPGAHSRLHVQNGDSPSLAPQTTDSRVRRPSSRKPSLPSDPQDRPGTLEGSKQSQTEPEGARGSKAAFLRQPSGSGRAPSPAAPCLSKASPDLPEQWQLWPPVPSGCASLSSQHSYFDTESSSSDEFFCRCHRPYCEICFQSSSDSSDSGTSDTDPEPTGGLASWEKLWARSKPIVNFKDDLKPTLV
UniProt P08253, sequence (whole entry, looked up): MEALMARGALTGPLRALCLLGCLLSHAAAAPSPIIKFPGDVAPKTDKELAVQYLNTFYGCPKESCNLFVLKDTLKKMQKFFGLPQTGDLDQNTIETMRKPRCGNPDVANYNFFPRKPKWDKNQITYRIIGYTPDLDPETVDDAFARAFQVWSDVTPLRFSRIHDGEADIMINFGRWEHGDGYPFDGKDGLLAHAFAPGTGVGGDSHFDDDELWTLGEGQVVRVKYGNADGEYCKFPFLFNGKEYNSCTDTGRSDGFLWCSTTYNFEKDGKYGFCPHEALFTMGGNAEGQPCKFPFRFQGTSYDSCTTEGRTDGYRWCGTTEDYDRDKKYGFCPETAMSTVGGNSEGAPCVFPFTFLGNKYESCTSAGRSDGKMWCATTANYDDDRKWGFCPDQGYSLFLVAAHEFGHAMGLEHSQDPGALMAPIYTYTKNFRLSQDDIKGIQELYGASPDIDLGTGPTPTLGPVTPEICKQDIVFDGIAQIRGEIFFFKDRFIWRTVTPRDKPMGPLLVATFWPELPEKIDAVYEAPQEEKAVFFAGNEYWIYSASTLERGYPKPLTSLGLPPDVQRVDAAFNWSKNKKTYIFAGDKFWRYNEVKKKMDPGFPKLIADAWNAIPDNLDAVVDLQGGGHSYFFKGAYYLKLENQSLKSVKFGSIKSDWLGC
UniProt Q14680, sequence (whole entry, looked up): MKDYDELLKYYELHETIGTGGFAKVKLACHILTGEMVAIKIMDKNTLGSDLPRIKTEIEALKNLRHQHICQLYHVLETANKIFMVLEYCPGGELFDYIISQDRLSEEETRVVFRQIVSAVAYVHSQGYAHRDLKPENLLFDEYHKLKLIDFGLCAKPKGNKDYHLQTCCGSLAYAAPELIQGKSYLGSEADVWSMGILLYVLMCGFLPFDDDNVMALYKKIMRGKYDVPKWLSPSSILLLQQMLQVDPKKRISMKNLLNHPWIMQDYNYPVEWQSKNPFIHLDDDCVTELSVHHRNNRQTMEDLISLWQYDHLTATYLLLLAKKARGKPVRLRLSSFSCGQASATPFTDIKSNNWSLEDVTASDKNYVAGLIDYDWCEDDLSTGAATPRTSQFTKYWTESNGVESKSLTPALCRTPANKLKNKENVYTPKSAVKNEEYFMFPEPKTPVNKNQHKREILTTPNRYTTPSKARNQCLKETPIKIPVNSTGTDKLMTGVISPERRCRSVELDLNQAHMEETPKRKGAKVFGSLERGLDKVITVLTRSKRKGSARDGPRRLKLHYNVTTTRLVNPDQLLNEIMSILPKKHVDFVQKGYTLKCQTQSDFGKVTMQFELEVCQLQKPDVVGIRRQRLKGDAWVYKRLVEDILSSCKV

Cc1cc(C(=O)NC(C)(C)COc2cccc3c2C(N)=NS(=O)(=O)N3)cc(C)n1
revertant ratio (Salmonella typhimurium; Ames test, confirmatory; TA1537; 333 µg/plate; reference: solvent control): 1.2

CO[C@H]1C[C@@H]2CC[C@@H](C)[C@@](O)(O2)C(=O)C(=O)N2CCCC[C@H]2C(=O)O[C@H]([C@H](C)C[C@@H]2CC[C@@H](OC(=O)NCCOCCOCCOCCOCCOCCOCCOCCOCCC(=O)N3CCc4cc(Cn5nc(-c6ccc7oc(N)nc7c6)c6c(N)ncnc65)ccc4C3)[C@H](OC)C2)C[C@@H](O)[C@H](C)/C=C(\C)[C@@H](O)[C@@H](OC)C(=O)[C@H](C)C[C@H](C)/C=C/C=C/C=C/1C
TRAE incidence (phase 1 dose escalation, refers to: vomiting; advanced solid tumour patients; intravenous, 12 mg weekly, any grade): 33.3%

OC(CCN1CC=C(c2ccc(F)cc2)CC1)c1ccc(F)c2ccccc12 (stereo not drawn)
survival (Salmonella typhimurium; SOS/umu test; TA1535/pSK1002; 0.063 mg/mL, 4 h, without S9, full range): 43.6%

Oc1ccc2c3c1O[C@H]1[C@@H](O)CC[C@@]4(O)[C@@H](C2)N(CC2CCC2)CC[C@]314
log2 fold change (Probable G-protein coupled receptor 156 (GPR156, Homo sapiens, UniProt Q8NFN8); β-arrestin recruitment, TANGO luminescence, refers to: GPR156; concentration not given; reference: basal luminescence): -0.031

COc1cc(Nc2ncc(F)c(Nc3ccc4c(n3)NC(=O)C(C)(C)O4)n2)cc(OC)c1OC
pIC50 (MMP2 (Homo sapiens, UniProt P08253); metalloproteinase-2): < 5.00

C[C@H]1CN(c2n[nH]c3nc(N[C@H]4CC[C@H](NS(=O)(=O)CCC(F)(F)F)CC4)ncc23)CCO1
relative abundance (MELK (Homo sapiens, UniProt Q14680); inhibitor, Kinobeads competition profiling; 0.8 µM; reference: vehicle): 1.01

CC[C@H](C)[C@H](NC(=O)[C@H](CCCNC(=N)N)NC(=O)[C@H](CCCNC(=N)N)NC(=O)[C@H](CCCNC(=N)N)NC(=O)[C@H](CCCNC(=N)N)NC(=O)[C@H](CCCNC(=N)N)NC(=O)[C@@H](N)CCCNC(=N)N)C(=O)N[C@@H](CO)C(=O)N[C@@H](Cc1ccccc1)C(=O)N[C@@H](CC(C)C)C(=O)NCC(=O)N[C@@H](CO)C(=O)N[C@@H](CCCCN)C(=O)N[C@@H](CCCCN)C(=O)N[C@@H](CCCCN)C(=O)N[C@@H](CCCCN)C(=O)N[C@@H](CCCCN)C(=O)N[C@@H](CC(C)C)C(=O)N[C@@H](CC(C)C)C(=O)N[C@@H](CCCCN)C(=O)N[C@@H](CCCNC(=N)N)C(N)=O
hemolysis (human erythrocytes; 400 µM, 1 h; reference: Triton X-100): 2%

O=C(c1ccc(F)c(F)c1Nc1ccc(I)cc1F)N1CC(O)([C@@H]2CCCCN2)C1
adverse events of special interest (patients aged sample A to sample B years; oral, dose not given): 50%

CN1CC[C@@H](c2c(O)cc(O)c3c(=O)cc(-c4ccc(C(F)(F)F)cc4Cl)oc23)[C@@H]1CO
patients with adverse event (refers to: Anorexia; B-cell malignancies; oral, 150 mg, intermittent dosing): 33.3%

CC[C@H](C)[C@H](NC(=O)[C@H](Cc1ccccc1)NC(=O)[C@H](CCC(=O)O)NC(=O)[C@H](CCCNC(=N)N)NC(=O)[C@H](C)NC(=O)[C@H](C)NC(=O)[C@H](CCC(N)=O)NC(=O)[C@H](CCC(=O)O)NC(=O)[C@H](CCC(=O)O)NC(=O)[C@H](CC(C)C)NC(=O)[C@H](Cc1ccc(O)cc1)NC(=O)[C@H](CO)NC(=O)[C@H](CO)NC(=O)[C@@H](NC(=O)[C@H](CC(=O)O)NC(=O)[C@H](CO)NC(=O)[C@@H](NC(=O)[C@H](Cc1ccccc1)NC(=O)[C@@H](NC(=O)CNC(=O)[C@H](CCC(=O)O)NC(=O)[C@H](C)NC(=O)CCc1c[nH]cn1)[C@@H](C)O)[C@@H](C)O)C(C)C)C(=O)N[C@@H](C)C(=O)N[C@@H](Cc1c[nH]c2ccccc12)C(=O)N[C@@H](CC(C)C)C(=O)N[C@H](C(=O)N[C@@H](CCCNC(=N)N)C(=O)NCC(=O)N[C@@H](CCCNC(=N)N)C(=O)N[C@@H](CCCCNC(=O)COCCOCCNC(=O)COCCOCCNC(=O)CC[C@H](NC(=O)CCCCCCCCCCCCCCCCC(=O)O)C(=O)O)C(=O)NCC(=O)NCC(=O)N[C@@H](CO)C(=O)N[C@@H](CCCCNc1c(NCCCCCN(O)C(=O)CCC(=O)NCCCCCN(O)C(=O)CCC(=O)NCCCCCN(O)C(C)=O)c(=O)c1=O)C(=O)O)C(C)C [zirconium-89 labelled]
tissue uptake (rat, spleen; iv, 3 nmol/kg, 168 h, ex vivo): 0.53 %ID/g

COc1cc2c(Oc3ccc4[nH]c(C)cc4c3F)ccnc2cc1OCC1(N)CC1
grade 3 AST elevation (paediatric recurrent refractory sarcoma; 10 mg): 0%

CC[C@H](C)[C@H](NC(=O)[C@H](CC(C)C)NC(=O)[C@@H](NC(=O)[C@H](CCCNC(=N)N)NC(=O)[C@H](CCCNC(=N)N)NC(=O)[C@H](CCCNC(=N)N)NC(=O)[C@@H](N)CCCNC(=N)N)[C@@H](C)CC)C(=O)N[C@@H](CCCCN)C(=O)N[C@@H](CCCCN)C(=O)N[C@H](C(=O)N[C@@H](CC(C)C)C(=O)N[C@@H](CCCCN)C(=O)N[C@@H](CC(C)C)C(=O)N[C@@H](CCCCN)C(=O)N[C@@H](CO)C(=O)N[C@@H](CO)C(=O)N[C@@H](C)C(=O)N[C@@H](Cc1ccc(O)cc1)C(N)=O)C(C)C
hemolysis (human erythrocytes; 400 µM, 1 h; reference: Triton X-100): 9%

A few entries again:
CC[C@H](C)[C@H](NC(=O)[C@H](CC(C)C)NC(=O)[C@@H](NC(=O)[C@H](CCCNC(=N)N)NC(=O)[C@H](CCCNC(=N)N)NC(=O)[C@H](CCCNC(=N)N)NC(=O)[C@@H](N)CCCNC(=N)N)[C@@H](C)CC)C(=O)N[C@@H](CCCCN)C(=O)N[C@@H](CCCCN)C(=O)N[C@H](C(=O)N[C@@H](CC(C)C)C(=O)N[C@@H](CCCCN)C(=O)N[C@@H](CC(C)C)C(=O)N[C@@H](CCCCN)C(=O)N[C@@H](CO)C(=O)N[C@@H](CO)C(=O)N[C@@H](C)C(=O)N[C@@H](Cc1ccc(O)cc1)C(N)=O)C(C)C
hemolysis (human erythrocytes; 400 µM, 1 h; reference: Triton X-100): 9%

CC[C@H](C)[C@H](NC(=O)[C@H](Cc1ccccc1)NC(=O)[C@H](CCC(=O)O)NC(=O)[C@H](CCCNC(=N)N)NC(=O)[C@H](C)NC(=O)[C@H](C)NC(=O)[C@H](CCC(N)=O)NC(=O)[C@H](CCC(=O)O)NC(=O)[C@H](CCC(=O)O)NC(=O)[C@H](CC(C)C)NC(=O)[C@H](Cc1ccc(O)cc1)NC(=O)[C@H](CO)NC(=O)[C@H](CO)NC(=O)[C@@H](NC(=O)[C@H](CC(=O)O)NC(=O)[C@H](CO)NC(=O)[C@@H](NC(=O)[C@H](Cc1ccccc1)NC(=O)[C@@H](NC(=O)CNC(=O)[C@H](CCC(=O)O)NC(=O)[C@H](C)NC(=O)CCc1c[nH]cn1)[C@@H](C)O)[C@@H](C)O)C(C)C)C(=O)N[C@@H](C)C(=O)N[C@@H](Cc1c[nH]c2ccccc12)C(=O)N[C@@H](CC(C)C)C(=O)N[C@H](C(=O)N[C@@H](CCCNC(=N)N)C(=O)NCC(=O)N[C@@H](CCCNC(=N)N)C(=O)N[C@@H](CCCCNC(=O)COCCOCCNC(=O)COCCOCCNC(=O)CC[C@H](NC(=O)CCCCCCCCCCCCCCCCC(=O)O)C(=O)O)C(=O)NCC(=O)NCC(=O)N[C@@H](CO)C(=O)N[C@@H](CCCCNc1c(NCCCCCN(O)C(=O)CCC(=O)NCCCCCN(O)C(=O)CCC(=O)NCCCCCN(O)C(C)=O)c(=O)c1=O)C(=O)O)C(C)C [zirconium-89 labelled]
tissue uptake (rat, spleen; iv, 3 nmol/kg, 168 h, ex vivo): 0.53 %ID/g
